Measured values pooled from the literature.
Parts stem from different laboratories: compare values within a part only. Values joined by “and” are separate records of one study, mostly repeats; a detail may differ.
Sequence of UniProt P36894 (whole entry, looked up): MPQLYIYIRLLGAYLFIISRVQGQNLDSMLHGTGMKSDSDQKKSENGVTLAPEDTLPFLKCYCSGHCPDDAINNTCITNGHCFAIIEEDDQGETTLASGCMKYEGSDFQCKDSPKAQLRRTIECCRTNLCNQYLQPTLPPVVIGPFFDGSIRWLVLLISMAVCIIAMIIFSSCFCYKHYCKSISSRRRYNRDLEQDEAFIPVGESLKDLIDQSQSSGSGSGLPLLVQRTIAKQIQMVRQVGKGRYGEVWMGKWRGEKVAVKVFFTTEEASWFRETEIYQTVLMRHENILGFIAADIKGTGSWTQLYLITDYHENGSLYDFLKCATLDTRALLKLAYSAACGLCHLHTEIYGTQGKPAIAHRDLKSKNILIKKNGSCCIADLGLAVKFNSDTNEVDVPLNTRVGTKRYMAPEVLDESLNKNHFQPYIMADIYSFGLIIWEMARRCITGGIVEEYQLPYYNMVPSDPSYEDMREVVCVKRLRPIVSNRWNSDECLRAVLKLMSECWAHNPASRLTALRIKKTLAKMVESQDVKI
Sequence of UniProt O75582 (whole entry, looked up): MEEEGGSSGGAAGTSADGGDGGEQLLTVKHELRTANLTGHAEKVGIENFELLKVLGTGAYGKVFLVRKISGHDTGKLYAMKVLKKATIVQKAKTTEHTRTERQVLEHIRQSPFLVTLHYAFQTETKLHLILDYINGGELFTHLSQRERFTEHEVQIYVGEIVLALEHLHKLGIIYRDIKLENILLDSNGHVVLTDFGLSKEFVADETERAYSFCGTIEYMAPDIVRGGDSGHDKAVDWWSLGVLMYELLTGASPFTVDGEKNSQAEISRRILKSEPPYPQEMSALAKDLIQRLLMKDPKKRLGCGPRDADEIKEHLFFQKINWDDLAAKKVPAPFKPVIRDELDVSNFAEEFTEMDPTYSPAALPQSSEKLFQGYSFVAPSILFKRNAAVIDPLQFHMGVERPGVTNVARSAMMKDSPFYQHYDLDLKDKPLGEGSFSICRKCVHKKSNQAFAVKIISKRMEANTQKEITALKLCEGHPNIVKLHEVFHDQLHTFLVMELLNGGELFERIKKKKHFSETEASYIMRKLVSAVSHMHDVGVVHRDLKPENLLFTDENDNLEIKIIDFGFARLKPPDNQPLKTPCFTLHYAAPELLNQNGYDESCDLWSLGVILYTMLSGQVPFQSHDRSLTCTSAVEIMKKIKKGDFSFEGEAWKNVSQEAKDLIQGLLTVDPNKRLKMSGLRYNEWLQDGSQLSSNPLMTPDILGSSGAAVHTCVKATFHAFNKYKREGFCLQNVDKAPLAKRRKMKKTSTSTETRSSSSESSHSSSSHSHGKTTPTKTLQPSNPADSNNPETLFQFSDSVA
Sequence of UniProt Q9UIK4 (whole entry, looked up): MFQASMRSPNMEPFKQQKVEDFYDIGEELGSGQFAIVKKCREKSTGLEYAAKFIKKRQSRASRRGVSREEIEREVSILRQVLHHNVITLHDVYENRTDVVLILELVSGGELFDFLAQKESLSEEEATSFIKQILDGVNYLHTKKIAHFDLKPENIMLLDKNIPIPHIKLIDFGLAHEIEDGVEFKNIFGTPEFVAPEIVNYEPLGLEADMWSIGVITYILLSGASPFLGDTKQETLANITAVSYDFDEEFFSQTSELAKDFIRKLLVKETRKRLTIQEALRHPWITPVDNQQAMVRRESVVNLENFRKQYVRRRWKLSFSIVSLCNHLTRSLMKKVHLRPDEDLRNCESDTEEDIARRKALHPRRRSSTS
Sequence of UniProt P42336 (whole entry, unmodified, looked up): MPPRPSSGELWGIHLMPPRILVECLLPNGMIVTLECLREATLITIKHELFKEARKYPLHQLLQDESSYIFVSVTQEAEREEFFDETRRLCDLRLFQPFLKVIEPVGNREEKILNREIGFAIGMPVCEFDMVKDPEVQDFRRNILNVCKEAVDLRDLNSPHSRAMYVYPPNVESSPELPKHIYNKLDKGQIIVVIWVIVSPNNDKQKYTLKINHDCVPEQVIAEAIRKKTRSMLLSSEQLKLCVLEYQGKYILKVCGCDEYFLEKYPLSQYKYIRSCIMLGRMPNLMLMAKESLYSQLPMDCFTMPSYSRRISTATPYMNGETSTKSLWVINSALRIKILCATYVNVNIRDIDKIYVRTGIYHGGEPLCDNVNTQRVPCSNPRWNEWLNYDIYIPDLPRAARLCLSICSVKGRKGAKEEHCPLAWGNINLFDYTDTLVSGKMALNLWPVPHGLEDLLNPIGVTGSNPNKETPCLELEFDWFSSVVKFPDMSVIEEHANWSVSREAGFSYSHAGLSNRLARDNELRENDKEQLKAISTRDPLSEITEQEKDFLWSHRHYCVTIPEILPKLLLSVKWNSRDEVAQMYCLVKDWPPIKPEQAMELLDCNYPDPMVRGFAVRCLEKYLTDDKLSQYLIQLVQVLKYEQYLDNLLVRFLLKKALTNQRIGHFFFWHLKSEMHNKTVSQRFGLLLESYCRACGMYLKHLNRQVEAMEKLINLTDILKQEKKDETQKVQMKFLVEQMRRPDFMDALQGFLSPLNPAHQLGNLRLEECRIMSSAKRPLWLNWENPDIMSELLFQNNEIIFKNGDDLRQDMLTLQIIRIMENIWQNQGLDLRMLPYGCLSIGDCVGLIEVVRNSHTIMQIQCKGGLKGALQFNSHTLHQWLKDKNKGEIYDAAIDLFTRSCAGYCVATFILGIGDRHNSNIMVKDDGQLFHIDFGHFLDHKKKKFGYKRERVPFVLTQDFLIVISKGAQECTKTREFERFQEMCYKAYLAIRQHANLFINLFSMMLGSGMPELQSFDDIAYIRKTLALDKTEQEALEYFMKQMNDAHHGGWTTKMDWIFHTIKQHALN

Block 1
Target: cGMP-dependent protein kinase 1 (PRKG1, Homo sapiens, UniProt Q13976)
Observed: enzyme activity
Action: inhibitor
Tested at: 0.5 µM
Baseline: control
Residues (Q13976 1-671): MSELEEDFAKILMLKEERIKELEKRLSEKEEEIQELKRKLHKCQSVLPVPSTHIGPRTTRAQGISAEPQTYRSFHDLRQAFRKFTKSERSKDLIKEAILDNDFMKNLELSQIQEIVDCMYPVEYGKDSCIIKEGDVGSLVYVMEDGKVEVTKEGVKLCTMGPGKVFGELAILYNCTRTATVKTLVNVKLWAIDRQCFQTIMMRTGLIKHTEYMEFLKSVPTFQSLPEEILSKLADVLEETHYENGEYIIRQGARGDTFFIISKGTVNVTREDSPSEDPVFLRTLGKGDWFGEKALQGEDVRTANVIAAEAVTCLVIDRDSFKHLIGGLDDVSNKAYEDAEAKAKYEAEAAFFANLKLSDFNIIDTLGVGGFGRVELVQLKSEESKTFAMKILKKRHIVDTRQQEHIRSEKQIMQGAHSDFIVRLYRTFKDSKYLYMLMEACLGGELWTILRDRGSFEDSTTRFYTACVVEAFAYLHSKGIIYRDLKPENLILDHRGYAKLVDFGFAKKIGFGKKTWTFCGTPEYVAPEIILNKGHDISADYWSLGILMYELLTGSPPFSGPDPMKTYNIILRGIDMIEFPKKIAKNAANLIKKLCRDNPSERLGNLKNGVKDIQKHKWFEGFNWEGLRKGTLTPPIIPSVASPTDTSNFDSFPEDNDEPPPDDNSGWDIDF
Compound | remaining activity [%]
Cn1sc(=O)n(Cc2ccccc2)c1=O | 95.9
O=c1c2ccccc2[nH]c(=S)n1CCN1CCC(=C(c2ccc(F)cc2)c2ccc(F)cc2)CC1 | 102
CN(C)c1ccc(C=C2C(=O)Nc3ccccc32)cc1 | 99.7
CCOC(=O)c1c(C)[nH]c(/C=C2\C(=O)Nc3ccccc32)c1C | 78.3
Nc1ncnc2n[nH]c(Nc3ccc(F)cc3)c12 | 95.7
O=C1NC(=O)C(c2cn(CCCO)c3ncccc23)=C1c1cnccn1 | 131
COc1cc2ncnc(Nc3ccc(F)c(Cl)c3)c2cc1OCCCN1CCOCC1 | 87.5
COc1ccc(C(=O)Nc2sc3c(c2C(N)=O)CCCC3)cc1OC | 97
O=C(Nc1cccc(Nc2cc(Nc3cccc(C(F)(F)F)c3)ncn2)c1)C1CC1 | 96.4
Cn1c2ccccc2c2c3c(c4c5ccccc5n(CCC#N)c4c21)CNC3=O | 80.2
CNC(=O)c1cc(Oc2ccc(NC(=O)Nc3ccc(Cl)c(C(F)(F)F)c3)cc2)ccn1 | 88.6
COc1ccc(CNC(=O)Nc2ncc([N+](=O)[O-])s2)cc1 | 95.9
NCCNc1ncc(C(N)=O)c(Nc2cccc(C(F)(F)F)c2)n1 | 68.7
Cc1ccc(NC(=O)c2ccc(CN3CCN(C)CC3)cc2)cc1Nc1nc(-c2cccnc2)cs1 | 77.6
O=S(=O)(c1cccc2cnccc12)N1CCCNCC1 | 79.6

Block 2
Target: Sal-like protein 4, full length isoform B (SALL4, Homo sapiens, UniProt Q9UJQ4-2, residues 1-616)
Technique: universal PBM
Form: double-stranded DNA, one strand shown
Sample: in vitro
Tested at: not given
Setting: 8-mer, flanks averaged, mean of replicates
Direction: higher = stronger binding
Residues (chain): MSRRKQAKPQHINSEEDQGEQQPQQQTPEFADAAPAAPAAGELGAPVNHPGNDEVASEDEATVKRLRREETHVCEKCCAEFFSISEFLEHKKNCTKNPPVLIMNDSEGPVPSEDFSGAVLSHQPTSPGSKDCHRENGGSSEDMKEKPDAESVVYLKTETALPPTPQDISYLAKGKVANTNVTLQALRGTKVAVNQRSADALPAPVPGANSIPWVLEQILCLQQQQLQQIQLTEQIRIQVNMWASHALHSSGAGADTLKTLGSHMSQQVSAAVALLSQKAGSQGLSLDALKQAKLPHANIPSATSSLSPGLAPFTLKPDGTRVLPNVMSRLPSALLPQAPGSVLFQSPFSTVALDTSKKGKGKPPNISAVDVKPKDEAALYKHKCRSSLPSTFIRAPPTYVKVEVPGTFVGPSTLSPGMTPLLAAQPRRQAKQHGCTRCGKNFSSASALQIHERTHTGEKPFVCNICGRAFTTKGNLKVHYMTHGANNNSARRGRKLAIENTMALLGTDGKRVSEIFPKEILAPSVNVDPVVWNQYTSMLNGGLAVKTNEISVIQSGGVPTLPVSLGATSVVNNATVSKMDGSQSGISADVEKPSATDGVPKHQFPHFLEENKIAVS
Oligonucleotide | E-score
CTGGCTTA | -0.167
CGGCACCG | -0.303
AAACTAAG | 0.198
CGTGGACA | -0.195
AGTAAGAT | 0.247
ACCAGCGA | -0.271
CCTAACGA | 0.0496
GCCTATCC | -0.158

Block 3
Compound: O=C1NC(c2ccccn2)Sc2ccccc21 (stereo not drawn)
Technique: competition with immobilised ligand
Tested at: 1 µM
target | assay | remaining binding [%]
Ribosomal protein S6 kinase alpha-5, C-terminal kinase domain (RPS6KA5, Homo sapiens, UniProt O75582) | cell-free assay | 87
DAPK2 (Homo sapiens, UniProt Q9UIK4) | cell-free assay | 79
PIK3CA (Homo sapiens, UniProt P42336, H1047L) | cell-free assay | 59
BMPR1A (Homo sapiens, UniProt P36894) | binding | 100

Block 4
Target: Interferon regulatory factor 5, full length, phosphomimetic (IRF5, Homo sapiens, UniProt Q13568-2, residues 1-514, K96S/S451D/S453D/S456D/S462D)
Technique: protein-binding microarray
Form: double-stranded DNA, one strand shown
Sample: in vitro
Tested at: 250 nM
Setting: 60-bp whole probe
With: salmon DNA 0.4 mg/ml
Baseline: random background probes
Direction: higher = stronger binding
Shared flanks, not repeated: GCCTAGCAC … GTCTTGATTCGCTTGACGCTGCTG
Oligonucleotide | log fluorescence
GACGATTTCAGAATGGAGACGTGCTAG | 0.427 z-score
GACGGTATCGGACTGGGGAGGTGCTAG | 0.825 z-score
GACGGTCTCCTTTCCCTGACGTGCTAG | 0.401 z-score
TTAGATCTCTGACTGGATTAGTGCTAG | -0.315 z-score
TTAGGAGTGGACTATCGGTTAGTGCTA | 5.41 z-score
TTTGCTCTGTGCATAGGTCTGTGCTAG | -0.0833 z-score
ACATCTCTCTTAAATAGGGACGTGCTA | 0.00221 z-score
TTAGATTTCGACACTGGGTTAGTGCTA | 2.4 z-score

Further values, each from its own experiment
SMILES | system | conditions | measurement | result
CN(N=O)C(=O)N[C@@H]1[C@@H](O)[C@H](O)[C@@H](CO)O[C@@H]1O | mice, STZ diabetic neuropathy | dose not given, 3 days after STZ | blood glucose | 505 mg/dL and 325 mg/dL and 398 mg/dL and 298 mg/dL and 403 mg/dL
